Assay results collected from several papers.
Numbered parts are unrelated; each lists some results of a single study. “And” joins repeats or separate records; there may be more than shown.
Sequence of UniProt P49238 (whole entry, looked up): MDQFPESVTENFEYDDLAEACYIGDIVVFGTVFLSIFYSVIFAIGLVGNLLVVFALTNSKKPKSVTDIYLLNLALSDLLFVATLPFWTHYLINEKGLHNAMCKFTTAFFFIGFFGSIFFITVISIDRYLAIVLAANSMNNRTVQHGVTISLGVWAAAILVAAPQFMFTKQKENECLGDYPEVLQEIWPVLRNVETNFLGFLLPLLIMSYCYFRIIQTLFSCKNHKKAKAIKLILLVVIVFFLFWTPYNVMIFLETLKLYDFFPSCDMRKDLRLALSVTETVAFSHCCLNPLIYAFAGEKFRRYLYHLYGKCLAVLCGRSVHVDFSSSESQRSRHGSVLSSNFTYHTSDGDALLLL
Sequence of UniProt Q9UHD2 (whole entry, looked up): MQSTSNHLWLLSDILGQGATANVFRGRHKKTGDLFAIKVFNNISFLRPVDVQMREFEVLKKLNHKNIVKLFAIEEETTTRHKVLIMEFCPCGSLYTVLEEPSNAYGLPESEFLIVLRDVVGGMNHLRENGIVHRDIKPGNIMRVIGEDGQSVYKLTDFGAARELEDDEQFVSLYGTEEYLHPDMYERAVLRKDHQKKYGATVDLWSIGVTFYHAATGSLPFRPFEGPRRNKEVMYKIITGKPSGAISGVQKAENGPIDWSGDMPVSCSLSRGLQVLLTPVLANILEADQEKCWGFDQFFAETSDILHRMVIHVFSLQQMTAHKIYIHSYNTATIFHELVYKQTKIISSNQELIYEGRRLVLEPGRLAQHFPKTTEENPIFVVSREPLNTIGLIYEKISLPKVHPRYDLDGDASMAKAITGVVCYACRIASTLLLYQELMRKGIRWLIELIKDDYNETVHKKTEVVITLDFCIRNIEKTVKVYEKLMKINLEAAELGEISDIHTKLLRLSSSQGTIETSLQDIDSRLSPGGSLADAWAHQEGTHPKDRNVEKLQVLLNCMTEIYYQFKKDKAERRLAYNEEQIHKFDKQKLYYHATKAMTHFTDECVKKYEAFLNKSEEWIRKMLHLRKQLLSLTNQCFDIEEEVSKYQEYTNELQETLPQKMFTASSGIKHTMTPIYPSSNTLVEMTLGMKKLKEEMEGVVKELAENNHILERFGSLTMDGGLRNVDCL
Sequence of UniProt P22607 (whole entry, looked up): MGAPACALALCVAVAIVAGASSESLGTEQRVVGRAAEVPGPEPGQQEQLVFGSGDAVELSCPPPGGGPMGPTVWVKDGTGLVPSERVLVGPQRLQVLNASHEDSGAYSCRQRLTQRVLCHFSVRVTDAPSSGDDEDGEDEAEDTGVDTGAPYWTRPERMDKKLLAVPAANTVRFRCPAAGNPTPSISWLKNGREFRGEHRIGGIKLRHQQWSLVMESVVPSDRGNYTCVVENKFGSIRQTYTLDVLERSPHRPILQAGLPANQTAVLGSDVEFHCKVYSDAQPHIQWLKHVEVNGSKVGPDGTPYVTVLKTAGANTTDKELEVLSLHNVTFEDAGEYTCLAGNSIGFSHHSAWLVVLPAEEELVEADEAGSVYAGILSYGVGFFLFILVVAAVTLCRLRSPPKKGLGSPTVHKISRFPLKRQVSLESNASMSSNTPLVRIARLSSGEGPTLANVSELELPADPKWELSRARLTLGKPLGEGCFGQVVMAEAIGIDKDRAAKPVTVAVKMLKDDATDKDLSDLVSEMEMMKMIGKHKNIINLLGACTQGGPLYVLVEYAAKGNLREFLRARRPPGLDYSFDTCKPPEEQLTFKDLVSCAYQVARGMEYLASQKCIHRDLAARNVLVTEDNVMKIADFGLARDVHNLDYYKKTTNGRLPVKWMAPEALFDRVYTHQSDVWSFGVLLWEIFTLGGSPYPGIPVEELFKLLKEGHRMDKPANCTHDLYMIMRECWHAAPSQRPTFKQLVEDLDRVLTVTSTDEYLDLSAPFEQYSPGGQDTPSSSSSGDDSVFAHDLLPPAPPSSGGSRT
Sequence of UniProt P29320 (whole entry, looked up): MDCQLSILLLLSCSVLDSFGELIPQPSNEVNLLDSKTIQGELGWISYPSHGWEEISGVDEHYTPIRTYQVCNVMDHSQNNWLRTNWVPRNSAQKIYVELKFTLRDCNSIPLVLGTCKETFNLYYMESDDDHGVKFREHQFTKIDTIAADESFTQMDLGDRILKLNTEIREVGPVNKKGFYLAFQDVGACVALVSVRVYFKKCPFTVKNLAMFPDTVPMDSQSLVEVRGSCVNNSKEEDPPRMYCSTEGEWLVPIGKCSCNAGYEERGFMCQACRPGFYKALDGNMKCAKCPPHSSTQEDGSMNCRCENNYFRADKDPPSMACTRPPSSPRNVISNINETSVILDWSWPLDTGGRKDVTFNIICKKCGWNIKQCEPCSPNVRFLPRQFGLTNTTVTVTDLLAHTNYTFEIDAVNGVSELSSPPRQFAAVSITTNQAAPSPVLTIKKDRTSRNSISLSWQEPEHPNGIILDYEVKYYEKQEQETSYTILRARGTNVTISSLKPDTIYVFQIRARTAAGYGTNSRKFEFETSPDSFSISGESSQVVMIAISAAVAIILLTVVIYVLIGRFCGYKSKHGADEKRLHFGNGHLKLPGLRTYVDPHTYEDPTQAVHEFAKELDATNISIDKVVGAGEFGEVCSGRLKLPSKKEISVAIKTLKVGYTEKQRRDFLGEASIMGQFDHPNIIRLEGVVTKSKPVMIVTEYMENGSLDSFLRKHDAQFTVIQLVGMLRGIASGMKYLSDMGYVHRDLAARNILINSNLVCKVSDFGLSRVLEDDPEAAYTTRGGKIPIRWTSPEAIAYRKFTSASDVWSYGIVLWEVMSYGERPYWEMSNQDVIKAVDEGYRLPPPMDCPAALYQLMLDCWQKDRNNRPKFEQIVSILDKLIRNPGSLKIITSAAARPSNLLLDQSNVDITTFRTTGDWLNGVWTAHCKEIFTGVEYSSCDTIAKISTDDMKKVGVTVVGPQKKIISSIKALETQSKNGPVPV
Sequence of UniProt P25021 (whole entry, looked up): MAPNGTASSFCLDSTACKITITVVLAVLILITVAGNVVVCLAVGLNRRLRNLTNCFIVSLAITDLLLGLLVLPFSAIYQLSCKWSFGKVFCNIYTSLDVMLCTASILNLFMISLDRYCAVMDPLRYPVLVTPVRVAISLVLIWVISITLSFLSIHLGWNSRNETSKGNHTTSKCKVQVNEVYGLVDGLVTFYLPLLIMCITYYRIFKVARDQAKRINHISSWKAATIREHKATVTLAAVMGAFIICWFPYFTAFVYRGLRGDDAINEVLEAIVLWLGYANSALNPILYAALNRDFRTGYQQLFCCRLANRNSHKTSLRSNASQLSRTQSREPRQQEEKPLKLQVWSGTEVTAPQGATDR
Sequence of UniProt Q12866 (whole entry, looked up): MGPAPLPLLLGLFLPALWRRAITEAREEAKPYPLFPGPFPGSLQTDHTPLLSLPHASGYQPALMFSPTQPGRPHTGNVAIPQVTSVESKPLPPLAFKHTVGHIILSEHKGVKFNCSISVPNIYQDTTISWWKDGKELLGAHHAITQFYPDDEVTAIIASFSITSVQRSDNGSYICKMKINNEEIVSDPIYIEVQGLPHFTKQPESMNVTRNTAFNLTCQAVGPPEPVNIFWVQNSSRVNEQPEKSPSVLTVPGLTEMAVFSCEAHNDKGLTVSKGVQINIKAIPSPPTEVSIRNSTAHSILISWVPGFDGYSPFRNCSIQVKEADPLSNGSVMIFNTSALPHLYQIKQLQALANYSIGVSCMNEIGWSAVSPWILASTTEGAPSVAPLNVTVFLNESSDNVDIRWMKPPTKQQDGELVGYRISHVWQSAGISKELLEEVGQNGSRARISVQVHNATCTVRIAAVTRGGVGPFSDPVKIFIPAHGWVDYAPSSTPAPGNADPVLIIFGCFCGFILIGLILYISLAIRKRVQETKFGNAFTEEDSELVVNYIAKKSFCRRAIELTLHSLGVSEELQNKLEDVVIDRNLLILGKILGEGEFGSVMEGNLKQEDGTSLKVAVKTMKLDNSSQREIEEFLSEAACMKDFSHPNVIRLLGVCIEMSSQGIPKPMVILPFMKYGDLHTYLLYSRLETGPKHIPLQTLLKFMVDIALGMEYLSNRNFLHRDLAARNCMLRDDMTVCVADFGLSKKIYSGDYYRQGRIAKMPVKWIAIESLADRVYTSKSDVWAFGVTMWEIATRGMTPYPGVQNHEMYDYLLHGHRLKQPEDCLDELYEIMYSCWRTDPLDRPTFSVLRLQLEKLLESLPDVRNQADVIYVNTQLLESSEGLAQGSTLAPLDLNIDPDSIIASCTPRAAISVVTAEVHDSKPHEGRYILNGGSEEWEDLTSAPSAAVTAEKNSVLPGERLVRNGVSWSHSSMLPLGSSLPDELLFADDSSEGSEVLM
Sequence of UniProt P42685 (whole entry, looked up): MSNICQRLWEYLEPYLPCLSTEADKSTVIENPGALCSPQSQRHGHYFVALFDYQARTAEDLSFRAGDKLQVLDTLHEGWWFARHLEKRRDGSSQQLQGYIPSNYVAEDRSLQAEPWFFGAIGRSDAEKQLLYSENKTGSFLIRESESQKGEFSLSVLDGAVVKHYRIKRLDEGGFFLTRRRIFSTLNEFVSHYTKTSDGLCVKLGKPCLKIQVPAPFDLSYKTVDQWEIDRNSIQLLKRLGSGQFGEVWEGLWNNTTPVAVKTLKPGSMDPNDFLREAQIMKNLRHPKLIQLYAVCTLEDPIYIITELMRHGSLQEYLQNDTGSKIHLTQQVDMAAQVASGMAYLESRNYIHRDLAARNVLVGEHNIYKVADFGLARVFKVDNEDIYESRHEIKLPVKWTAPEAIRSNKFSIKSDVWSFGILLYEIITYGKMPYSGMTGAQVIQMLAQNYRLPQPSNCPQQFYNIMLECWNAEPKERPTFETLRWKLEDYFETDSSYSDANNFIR

Study 1
Technique: PRP chromatography
Notes: linear fit, 1 mL
| SMILES | logD 1,9-decadiene/water [log units] |
| --- | --- |
| CC(C)C[C@@H]1NC(=O)[C@@H](C)NC(=O)[C@H](CCC(=O)N2CCCC2)NC(=O)[C@H](C)NC(=O)[C@H](C(C)C)NC(=O)[C@H](CC(C)C)NC(=O)[C@@H](CC(C)C)NC1=O | -1.12 |
| CC(C)C[C@@H]1NC(=O)[C@H](C(C)C)NC(=O)[C@H](C)NC(=O)[C@H](CCC(=O)N2CCCC2)NC(=O)[C@@H](CCC(=O)N2CCCC2)NC(=O)[C@H](CC(C)C)NC(=O)[C@@H](CC(C)C)NC1=O | -4.38 |
| CC(C)C[C@@H]1NC(=O)[C@H](CC(C)C)NC(=O)[C@H](CC(C)C)NC(=O)[C@H](CC(C)C)NC(=O)[C@H](C(C)C)NC(=O)[C@H](Cc2cscn2)NC(=O)[C@H](C)NC1=O | -1.84 |
| CC(C)C[C@@H]1NC(=O)[C@H](C)NC(=O)[C@@H](CC(C)C)NC(=O)[C@H](C)NC(=O)[C@@H](Cc2cscn2)NC(=O)[C@H](CC(C)C)NC(=O)[C@@H](CC(C)C)NC1=O | -0.346 |
| CC(C)C[C@@H]1NC(=O)[C@@H](C)NC(=O)[C@H](C)NC(=O)[C@H](C)NC(=O)[C@H](C(C)C)NC(=O)[C@H](CC(C)C)NC(=O)[C@@H](CC(C)C)NC1=O | -2.3 |
| CC(C)C[C@@H]1NC(=O)[C@H](CC(C)C)NC(=O)[C@@H](CC(C)C)NC(=O)[C@H](C)NC(=O)[C@@H](CCC(=O)N2CCCC2)NC(=O)[C@H](C)NC(=O)[C@H](C)NC1=O | -3 |

Study 2
SMILES: CCN(c1nc(N)c(C(=O)N=C(N)N)nc1Cl)C(C)C
Read-out: β-arrestin recruitment
Mode: agonist
Technique: PRESTO-Tango
Tested at: 10 µM
Relative to: untreated
| target | fold over basal |
| --- | --- |
| GLP2R (Homo sapiens, UniProt O95838) | 0.45 fold |
| HRH2 (Homo sapiens, UniProt P25021) | 1.35 fold |
| CX3CR1 (Homo sapiens, UniProt P49238) | 1.12 |
| GABBR1 (Homo sapiens, UniProt Q9UBS5) | 0.87 fold |
| S1PR3 (Homo sapiens, UniProt Q99500) | 0.96 |
| ADRA2A (Homo sapiens, UniProt P08913) | 0.91 |

Study 3
Compound: CCc1[nH]c(-c2ccc(OC)cc2)nc1-c1ccncc1
Read-out: enzyme activity
Mode: inhibitor
Tested at: 0.5 µM
Relative to: control
| target | remaining activity |
| --- | --- |
| FGFR3 (Homo sapiens, UniProt P22607) | 99.8% |
| TBK1 (Homo sapiens, UniProt Q9UHD2) | 99.7% |
| CSNK1G2 (Homo sapiens, UniProt P78368) | 97.7% |
| MAPK3 (Homo sapiens, UniProt P27361) | 99.9% |
| ABL2 (Homo sapiens, UniProt P42684) | 98.3% |
| EPHA3 (Homo sapiens, UniProt P29320) | 100% |
| GSK3B (Homo sapiens, UniProt P49841) | 108% |
| TEK (Homo sapiens, UniProt Q02763) | 99.1% |
| MERTK (Homo sapiens, UniProt Q12866) | 92.1% |
| FGFR1 (Homo sapiens, UniProt P11362) | 88.1% |
| FRK (Homo sapiens, UniProt P42685) | 101% |
| WEE1 (Homo sapiens, UniProt P30291) | 89.1% |
| RPS6KA2 (Homo sapiens, UniProt Q15349) | 99.1% |
| MAP3K14 (Homo sapiens, UniProt Q99558) | 118% |

Study 4
Structure (SMILES): CC(C)(C(=O)O)[C@H](NC(=O)Cc1cccc(I)c1)c1ccc2oc(=O)[nH]c2c1
Technique: Incucyte 3D growth
Tested at: 30 µM
Reading: higher = more growth
| cell line | setting | spheroid area |
| --- | --- | --- |
| NCI-H1437 | 78 h | 3.15e+07 a.u. and 2.95e+07 a.u. and 2.42e+07 a.u. and 2.56e+07 a.u. and 2.97e+07 a.u. |
| MEL-JUSO | 456.52 h | 5.42e+07 a.u. and 2.8e+07 a.u. and 2.62e+07 a.u. and 2.78e+07 a.u. and 7.46e+07 a.u. and 3.78e+07 a.u. |
| MEL-JUSO | 210.52 h | 1.59e+07 a.u. and 1.65e+07 a.u. and 1.8e+07 a.u. and 2.45e+07 a.u. and 2.06e+07 a.u. and 1.53e+07 a.u. |
| PC-9 | 174 h | 1.59e+09 a.u. and 1.51e+09 a.u. and 1.52e+09 a.u. and 1.49e+09 a.u. and 1.6e+09 a.u. |

Some of these lines once more (study 3):
| target | remaining activity |
| --- | --- |
| MAP3K14 (Homo sapiens, UniProt Q99558) | 118% |
| WEE1 (Homo sapiens, UniProt P30291) | 89.1% |
| CSNK1G2 (Homo sapiens, UniProt P78368) | 97.7% |
| MAPK3 (Homo sapiens, UniProt P27361) | 99.9% |
| GSK3B (Homo sapiens, UniProt P49841) | 108% |
